# Results pooled from the literature.
# Protocols differ between the studies behind these lines. Numbers after ± are the reported error.
# Cell line: RAW264.7
Structure (SMILES),assay,system,setting,scale,measurement,value
CC(C)[C@@H]1CC[C@@H](C)C[C@H]1OC(=O)COC(=O)Cn1cnc2c1c(=O)n(C)c(=O)n2C,"cell growth or viability, MTT",,"50 µM, 24 h",,viability,88%
COC1=C[C@@H]2[C@@H]3Cc4c(Br)cc(OC)c(OC(=O)c5cnc(C)cn5)c4[C@]2(CCN3C)CC1=O,"cytotoxicity, MTT",,24 h,,IC50,> 100 µM
O=C(/C=C/CCl)OC1CCOC1=O (racemic),cytotoxicity,,,,IC50,> 49 µM
CC[C@H](C)[C@H](NC(=O)[C@@H](NC(=O)[C@H](CCCCN)NC(=O)[C@H](CC(=O)O)NC(=O)[C@H](CCCCN)NC(=O)[C@H](Cc1ccccc1)NC(=O)[C@H](Cc1ccccc1)NC(=O)[C@H](CO)NC(=O)[C@H](CCCCN)NC(=O)[C@H](CCSC)NC(=O)[C@H](CCCCN)NC(=O)[C@H](CCCCN)NC(=O)[C@H](Cc1c[nH]c2ccccc12)NC(=O)[C@@H](N)Cc1ccccc1)C(C)C)C(=O)N1CCC[C@H]1C(=O)N[C@@H](CCCCN)C(=O)N[C@H](C(=O)N[C@@H](CCC(N)=O)C(=O)N[C@@H](CCC(N)=O)C(=O)N[C@@H](C)C(=O)N[C@@H](Cc1ccc(O)cc1)C(=O)N[C@@H](CO)C(=O)N[C@@H](CC(C)C)C(=O)N[C@@H](Cc1ccc(O)cc1)C(=O)N[C@@H](CC(N)=O)C(=O)N[C@@H](CCCCN)C(=O)N[C@@H](CC(C)C)C(=O)N[C@@H](CCC(N)=O)C(=O)N[C@@H](Cc1c[nH]cn1)C(=O)N[C@@H](CCCCN)C(=O)N[C@@H](CC(C)C)C(N)=O)C(C)C,WST-8,,"up to 25 µg/mL, 24 h",reference: water,viability,no effect
Cc1ccc(C(C)C)c(OC(=O)COC(=O)Cn2cnc3c2c(=O)n(C)c(=O)n3C)c1,"cell growth or viability, MTT",,"50 µM, 24 h",,viability,89%
CC[C@H](C)[C@H](NC(=O)[C@H](CCCCN)NC(=O)[C@H](CCCCN)NC(=O)[C@H](Cc1ccccc1)NC(=O)[C@H](CC(C)C)NC(=O)[C@@H](CCCCN)NC(=O)[C@H](Cc1c[nH]c2ccccc12)NC(=O)[C@H](CCCCN)NC(C)=O)C(=O)NCC(=O)N[C@@H](C)C(=O)N[C@H](C(=O)N[C@@H](CC(C)C)C(=O)N[C@@H](CCCCN)C(=O)N[C@H](CCCCN)C(=O)N[C@@H](CC(C)C)C(N)=O)C(C)C,"cell viability, MTT",,"1 h, 37 °C",,LD50,84 ± 14 µM
CC/C=C\C/C=C\C/C=C\CCCCCCCC(=O)OC[C@@H](O)CO[C@@H]1O[C@H](CO)[C@H](O)[C@H](O)[C@H]1O,"cell viability, MTT",serum-free medium,20 h,,LD50,> 100 µM
CC[C@H](C)[C@H](NC(=O)[C@H](CCCCN)NC(=O)[C@H](CCCCN)NC(=O)[C@H](Cc1ccccc1)NC(=O)[C@H](CC(C)C)NC(=O)[C@H](CCCCN)NC(=O)[C@H](Cc1c[nH]c2ccccc12)NC(=O)[C@H](CCCCN)NC(C)=O)C(=O)NCC(=O)N[C@@H](C)C(=O)N[C@H](C(=O)N[C@@H](CC(C)C)C(=O)N[C@@H](CCCCN)C(=O)N[C@H](C(=O)N[C@@H](CC(C)C)C(N)=O)C(C)C)C(C)C,"cell viability, MTT",,"1 h, 37 °C",,LD50,3.8 µM
CCCCCCCC/C=C\CCCCc1cc(=O)c2ccccc2n1C,,,"48 h, 50% growth inhibition",,GIC50,39 ± 12 mg/L
COc1cc(C=O)ccc1OC(=O)Cn1cnc2c1c(=O)n(C)c(=O)n2C,"cell growth or viability, MTT",,"50 µM, 24 h",,viability,90%
COC1=C[C@@H]2[C@@H]3Cc4c(Br)cc(OC)c(OC(=O)c5cnccn5)c4[C@]2(CCN3C)CC1=O,"cytotoxicity, MTT",,24 h,,IC50,52.7 ± 3.19 µM
CC/C=C\C/C=C\C/C=C\CCCCCC(=O)OC[C@@H](O)CO[C@@H]1O[C@H](CO)[C@H](O)[C@H](O)[C@H]1O,"cell viability, MTT",serum-free medium,20 h,,LD50,> 100 µM
CC[C@H](C)[C@H](NC(=O)CN)C(=O)NCC(=O)N[C@@H](C)C(=O)N[C@H](C(=O)N[C@@H](CC(C)C)C(=O)N[C@@H](CCCCN)C(=O)N[C@H](C(=O)N[C@@H](CC(C)C)C(=O)N[C@H](C(=O)N[C@H](C(=O)NCC(=O)N[C@@H](CC(C)C)C(=O)N1CCC[C@H]1C(=O)N[C@@H](C)C(=O)N[C@@H](CC(C)C)C(=O)N[C@H](C(=O)N[C@@H](CO)C(=O)N[C@@H](Cc1c[nH]c2ccccc12)C(=O)N[C@H](C(=O)N[C@@H](CCCCN)C(=O)N[C@@H](CCCNC(=N)N)C(=O)N[C@@H](CCCCN)C(=O)N[C@@H](CCCNC(=N)N)C(=O)N[C@@H](CCC(N)=O)C(=O)N[C@@H](CCC(N)=O)C(N)=O)[C@@H](C)CC)[C@@H](C)CC)[C@@H](C)O)[C@@H](C)O)C(C)C)C(C)C,"cytotoxicity, MTT",,4 h,,IC20,2 µM
C=CCc1ccc(OC(=O)COC(=O)Cn2cnc3c2c(=O)n(C)c(=O)n3C)c(OC)c1,"cell growth or viability, MTT",,"50 µM, 24 h",,viability,92%
COC1=C[C@@H]2[C@@H]3Cc4ccc(OC)c(OC(=O)[C@@H]5CCCN5C(=O)OC(C)(C)C)c4[C@]2(CCN3C)CC1=O,"cytotoxicity, MTT",,24 h,,IC50,> 100 µM
COc1cc(C=O)ccc1OC(=O)CSc1nnc(Cn2cnc3c2c(=O)n(C)c(=O)n3C)o1,"cell growth or viability, MTT",,"50 µM, 24 h",,viability,92%
COC1CC(=O)N(C)C=CCCCC(=O)N(C)C(C(C)C)C(=O)N(C)C(CC(C)C)C(=O)OC(C(C)C)CC(C)C1 (stereo not shown),MTT,,"up to 100 µM, 24 h",,cytotoxicity,not toxic
COC1=C[C@@H]2[C@@H]3Cc4c(Br)cc(OC)c(OC(=O)c5ccnnc5)c4[C@]2(CCN3C)CC1=O,"cytotoxicity, MTT",,24 h,,IC50,> 100 µM
Cc1ccc(C(C)C)c(OC(=O)Cn2cnc3c2c(=O)n(C)c(=O)n3C)c1,"cell growth or viability, MTT",,"50 µM, 24 h",,viability,94%
O=C(/C=C/CBr)O[C@@H]1COC(=O)C1,cytotoxicity,,,,IC50,22 µM
CC1CCC(C(C)C)C(OC(=O)CSc2nnc(Cn3cnc4c3c(=O)n(C)c(=O)n4C)o2)C1 (stereo not shown),"cell growth or viability, MTT",,"50 µM, 24 h",,viability,90%
COC1=C[C@@H]2[C@@H]3Cc4c(COC(=O)c5nc(C)c(C)nc5C)cc(OC)c(OC(=O)c5nc(C)c(C)nc5C)c4[C@]2(CCN3C)CC1=O,"cytotoxicity, MTT",,24 h,,IC50,54.9 ± 7.77 µM

# For quick reference, copied from above:
Structure (SMILES),assay,system,setting,scale,measurement,value
COc1cc(C=O)ccc1OC(=O)CSc1nnc(Cn2cnc3c2c(=O)n(C)c(=O)n3C)o1,"cell growth or viability, MTT",,"50 µM, 24 h",,viability,92%
COC1CC(=O)N(C)C=CCCCC(=O)N(C)C(C(C)C)C(=O)N(C)C(CC(C)C)C(=O)OC(C(C)C)CC(C)C1 (stereo not shown),MTT,,"up to 100 µM, 24 h",,cytotoxicity,not toxic
COC1=C[C@@H]2[C@@H]3Cc4c(Br)cc(OC)c(OC(=O)c5ccnnc5)c4[C@]2(CCN3C)CC1=O,"cytotoxicity, MTT",,24 h,,IC50,> 100 µM
